Measurements from different studies.
Parts stem from different laboratories: compare values within a part only.

Set 1
Target: Sal-like protein 4, full length isoform A (SALL4, Homo sapiens, UniProt Q9UJQ4, residues 1-1053)
UniProt Q9UJQ4, sequence (whole entry, looked up): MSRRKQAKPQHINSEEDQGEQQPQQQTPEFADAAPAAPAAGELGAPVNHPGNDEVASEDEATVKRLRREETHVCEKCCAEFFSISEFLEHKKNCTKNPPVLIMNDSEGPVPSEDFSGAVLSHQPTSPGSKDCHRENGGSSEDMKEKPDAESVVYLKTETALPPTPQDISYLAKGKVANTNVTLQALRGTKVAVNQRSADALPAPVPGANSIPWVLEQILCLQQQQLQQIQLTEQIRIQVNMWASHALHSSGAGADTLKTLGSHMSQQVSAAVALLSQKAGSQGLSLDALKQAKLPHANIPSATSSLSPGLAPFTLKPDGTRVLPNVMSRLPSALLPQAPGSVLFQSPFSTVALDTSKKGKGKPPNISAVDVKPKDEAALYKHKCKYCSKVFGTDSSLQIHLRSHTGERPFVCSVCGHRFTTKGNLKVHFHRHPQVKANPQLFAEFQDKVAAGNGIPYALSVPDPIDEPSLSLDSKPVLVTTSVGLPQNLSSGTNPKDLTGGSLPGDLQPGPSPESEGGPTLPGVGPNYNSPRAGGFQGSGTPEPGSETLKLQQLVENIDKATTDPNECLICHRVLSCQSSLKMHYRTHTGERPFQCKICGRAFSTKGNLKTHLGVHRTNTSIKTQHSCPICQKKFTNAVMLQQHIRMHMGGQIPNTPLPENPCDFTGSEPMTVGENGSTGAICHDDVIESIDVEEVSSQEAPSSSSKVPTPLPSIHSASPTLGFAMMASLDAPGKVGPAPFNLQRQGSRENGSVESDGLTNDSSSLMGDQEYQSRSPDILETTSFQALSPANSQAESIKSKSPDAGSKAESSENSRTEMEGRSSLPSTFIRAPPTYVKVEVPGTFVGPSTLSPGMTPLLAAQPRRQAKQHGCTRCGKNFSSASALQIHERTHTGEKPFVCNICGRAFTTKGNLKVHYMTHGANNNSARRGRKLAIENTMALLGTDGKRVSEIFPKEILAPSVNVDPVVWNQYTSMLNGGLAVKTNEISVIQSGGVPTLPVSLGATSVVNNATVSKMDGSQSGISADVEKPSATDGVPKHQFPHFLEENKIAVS
Technique: universal PBM
Molecule type: double-stranded DNA, one strand shown
Matrix: in vitro
Tested at: 600 nM
Setting: 8-mer, flanks averaged, mean of replicates
Reading: higher = stronger binding
`GACCTACA` gave an E-score of -0.00874.
For `CCGCCCGG`, the E-score was -0.389.
The E-score of `CTATTACC` is reported as 0.093.
`CCCAGCCA` has an E-score of -0.171.
`CTTCTGAC` gave an E-score of 0.0833.
`CGTCGCAA` gave an E-score of -0.134.

Set 2
Target: Interferon regulatory factor 3, full length, phosphomimetic (IRF3, Homo sapiens, UniProt Q14653, residues 1-427, S386D/S396D/S398D/S402D/T404D/S405D)
Technique: protein-binding microarray
Molecule type: double-stranded DNA, one strand shown
Matrix: in vitro
Tested at: 2540 nM top
Setting: 60-bp whole probe
With: salmon DNA 0.4 mg/ml
Baseline: random background probes
Reading: higher = stronger binding
Construct (chain): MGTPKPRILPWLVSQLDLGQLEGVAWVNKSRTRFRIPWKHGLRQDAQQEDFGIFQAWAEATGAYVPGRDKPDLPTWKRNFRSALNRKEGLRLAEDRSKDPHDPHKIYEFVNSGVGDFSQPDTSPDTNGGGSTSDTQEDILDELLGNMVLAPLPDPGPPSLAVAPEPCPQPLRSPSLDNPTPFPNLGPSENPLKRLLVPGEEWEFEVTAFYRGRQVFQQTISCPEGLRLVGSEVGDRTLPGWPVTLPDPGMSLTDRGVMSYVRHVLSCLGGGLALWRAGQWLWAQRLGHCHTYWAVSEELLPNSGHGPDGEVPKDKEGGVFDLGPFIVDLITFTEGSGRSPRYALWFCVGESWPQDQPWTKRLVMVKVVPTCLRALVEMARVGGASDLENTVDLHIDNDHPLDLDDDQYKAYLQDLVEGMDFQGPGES
Under “fitted relative affinity”, `GCCTAGCACTCACTTTCCAACTCTGTTACTGTGCTAGTCTTGATTCGCTTGACGCTGCTG` is recorded as 7.01 z-score.
For `GCCTAGCACTCAGCTTTCCTTCTTGAACTGTGCTAGGTCTTGATTCGCTTGACGCTGCTG`, “fitted relative affinity” read 7.41 z-score.
`GCCTAGCACGAGGGACTGCTTATCCTGACGTGCTAGGTCTTGATTCGCTTGACGCTGCTG` — result for “fitted relative affinity”: -0.68 z-score.
`GCCTAGCACTCATTTTCCTCTGTCATACTGTGCTAGGTCTTGATTCGCTTGACGCTGCTG`: “fitted relative affinity” 2.96 z-score.

Set 3
Target: Histone acetyltransferase KAT6A, both winged helices, GST fusion (KAT6A, Homo sapiens, UniProt Q92794, residues 1-181)
Technique: protein binding microarray
Molecule type: double-stranded DNA, one strand shown
Matrix: in vitro
Tested at: not given
Setting: 8-mer, flanks averaged, mean of 2 arrays, mostly near background
Baseline: not given
Reading: higher = stronger binding
Target sequence (chain): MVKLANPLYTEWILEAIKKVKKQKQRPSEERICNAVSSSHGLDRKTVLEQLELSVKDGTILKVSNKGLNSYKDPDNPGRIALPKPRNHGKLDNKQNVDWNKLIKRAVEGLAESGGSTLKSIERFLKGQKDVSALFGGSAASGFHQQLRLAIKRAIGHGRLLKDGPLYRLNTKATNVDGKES
`ACTGCCGG` has an E-score of 0.205.
With `GCAACAAA` the E-score was -0.121.
With `ATCACCAT` the E-score was -0.0404.
`TGTGCAAA` has an E-score of -0.108.
`CGGTCTCC` has an E-score of 0.107.

Single results of other studies
The fold induction of `PhoQ, residues 284 288 289 292 302 303 SVTLVV` is reported as 2.43 (PhoP, residues 12 14 15 18 19 SPWRL (Escherichia coli, UniProt P23836); Sort-seq, refers to: YFP reporter; E. coli; PhoQ-PhoP variant library, with: 10 µM Mg2+; baseline: high Mg2+ state, higher = stronger signaling).

For quick reference, copied from above (set 3):
`CGGTCTCC` has an E-score of 0.107.
